Measurements gathered from unrelated publications.
Protocols differ between the studies behind these lines. “And” joins repeats or separate records; there may be more than shown. ± marks the error that the study gave.
Voltage-dependent P/Q-type calcium channel subunit alpha-1A: Voltage-dependent P/Q-type calcium channel subunit alpha-1A (Homo sapiens, UniProt O00555)
UCHL1: Ubiquitin carboxyl-terminal hydrolase isozyme L1 (UCHL1, Homo sapiens, UniProt P09936)

Compound | target | assay | system | conditions | measurement | value
NCCNC(=O)c1ccc(Cl)cn1 | Voltage-dependent P/Q-type calcium channel subunit alpha-1A | ion current, antagonist | HEK293 | 3 µM | inhibition | 13%
[2H]c1cc(C)c(NC(=O)c2cnc(Nc3cc(N4CCCCC4)nc(C)n3)s2)c(Cl)c1 | Platelet-derived growth factor receptor alpha (PDGFRA, Homo sapiens, UniProt P16234, T674I) | – | – | 0.01 µM | inhibition | < 30%
CN1CCN(c2cc(-c3ccncc3)c(-c3ccc4ccccc4c3)nn2)CC1 | Lutropin-choriogonadotropic hormone receptor (LHCGR, Homo sapiens, UniProt P22888) | antagonist, FLIPR | – | 10 µM | inhibition | 9.7%
Cc1cc(C)cc(COc2cc3c(cc2OCc2cc(C)cc(C)c2)[C@H]2C[C@](O)(Cc4cn(Cc5ccc(O)cc5)nn4)C[C@H](C)N2CC3)c1 | Rab GDP dissociation inhibitor beta, with Rab1A (Homo sapiens, UniProt P50395) | GDI2-Rab1A interaction, NanoLuc complementation | – | 6.25 µM | inhibition | 94.2%
COc1cc(Cl)c(C(=O)N[C@@H](CN[C@H]2CC[C@@H](N)CC2)Cc2ccc(C#N)cc2)cc1-c1ccc(CN[C@H](C)c2ccc(C)cc2)o1 | Melanocortin receptor 4 (MC4R, Homo sapiens, UniProt P32245) | agonist response, antagonist | human cells | 10 µM, MC4 antagonist | inhibition | 80%
CC[C@@H]1[C@H](F)C(=O)N[C@@H]1COc1nccc2cc(C(N)=O)c(OC)cc12 | Serine/threonine-protein kinase tousled-like 2 (TLK2, Homo sapiens, UniProt Q86UE8) | ATP-site probe binding, ActivX profiling | THP-1 cell lysate | 0.01 mM, Lys2 site | inhibition | 0.7%
Cc1cc(-c2ccnc3[nH]cc(F)c23)cc(F)c1[C@@]1(O)[C@H](C)CN(C2CCS(=O)(=O)CC2)C[C@@H]1C | Serine/threonine-protein kinase LATS2 (LATS2, Homo sapiens, UniProt Q9NRM7) | ATP probe binding, KiNativ, measured: Lys2 site | HEK293T cell lysate | 10 µM | inhibition | 93.8%
CCN(c1cc(C#CCN2CCOCC2)cc(C(=O)NCc2c(C)cc(C)[nH]c2=O)c1C)[C@H]1CC[C@H](N(C)CCOC)CC1 | Histone-lysine N-methyltransferase EZH2 (EZH2, Homo sapiens, UniProt Q15910) | enzyme activity, inhibitor | – | 1 µM, with: peptide substrate | inhibition | 100 ± 16%
O=C(CCl)c1ccc(CC(=O)N2CCOCC2)s1 | UCHL1 | covalent, intact protein LC-MS | – | 12.5 µM | labelling | 21.6%
CNCCC(Oc1ccc(C(F)(F)F)cc1)c1ccccc1.Cl (stereo not drawn) | Voltage-dependent P/Q-type calcium channel subunit alpha-1A | ion current, antagonist | – | 10 µM | inhibition | 26%
Cc1ccc(CNC(=O)[C@H](CCc2ccccc2)NC(=O)[C@H](CCc2ccccc2)NC(=O)[C@H](CCc2ccccc2)NC(=O)c2cnc(C)cn2)cc1 | trypsin | enzyme activity, inhibitor | – | 100 µM | inhibition | 12%
Cc1cc(-c2ccnc3[nH]cc(F)c23)cc(F)c1[C@@]1(O)[C@H](C)CN(C(=O)CN)C[C@@H]1C | Phosphatidylinositol 3-kinase catalytic subunit type 3 (PIK3C3, Homo sapiens, UniProt Q8NEB9) | ATP probe binding, KiNativ, measured: ATP site | HEK293T cell lysate | 10 µM | inhibition | 91.7%
CCn1cc(C(=O)O)c(=O)c2cc(F)c(N3CCNCC3)nc21 | Voltage-dependent P/Q-type calcium channel subunit alpha-1A | ion current, antagonist | HEK293 | 10 µM | inhibition | 1%
COc1ccc(OC)c(-c2csc(NC(=O)CCl)n2)c1 | UCHL1 | covalent, intact protein LC-MS | – | 12.5 µM | labelling | 11%
CC(C)NCC(O)COc1cccc2ccccc12 (stereo not drawn) | Voltage-dependent P/Q-type calcium channel subunit alpha-1A | ion current, antagonist | HEK293 | 30 µM | inhibition | 57%
NC/C(=C\F)COc1cccc(Cn2c(=S)[nH]c(=O)c3[nH]cnc32)c1 | mouse phorbol ester receptor | radioligand binding | – | 10 µM | inhibition | < 50%
CN(C)CCC=C1c2ccccc2C=Cc2ccccc21 | Voltage-dependent P/Q-type calcium channel subunit alpha-1A | ion current, antagonist | HEK293 | 30 µM | inhibition | 97%
Cc1ccc(C(=O)Nc2ccc3ccccc3c2)o1 | A-type voltage-gated potassium channel KCND3 (Rattus norvegicus, UniProt Q62897) | ion current, inhibitor, whole-cell patch clamp | – | 10 µM | inhibition | 5.7% and 10.9% and 7.1% and 6.3% and 5.1%
